# Measured values of several laboratories.
# Every numbered part comes from another study and shows a few of its results, in no order.

# Series 1
# Target: Histone acetyltransferase KAT6A, both winged helices, GST fusion (KAT6A, Homo sapiens, UniProt Q92794, residues 1-181)
# Method: protein binding microarray
# Molecule type: double-stranded DNA, one strand shown
# Matrix: in vitro
# Concentration: not given
# Setting: 8-mer, flanks averaged, mean of 2 arrays, mostly near background
# Relative to: not given
# Reading: higher = stronger binding
# Construct (chain): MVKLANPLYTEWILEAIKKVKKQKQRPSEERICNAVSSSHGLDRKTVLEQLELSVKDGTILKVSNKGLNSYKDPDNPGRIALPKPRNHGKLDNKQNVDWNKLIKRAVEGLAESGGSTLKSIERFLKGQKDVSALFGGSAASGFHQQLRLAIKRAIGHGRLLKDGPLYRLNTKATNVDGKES
Sequence,E-score
AATCTTGT,-0.106
ACCGTTAG,0.085
ATAGGAGA,-0.205
CCTTCTCA,-0.128
GTGCGATA,0.0272
ACGTGTCA,-0.0428
AATTAGCC,0.0117
AACTGGTG,-0.112
AACCACTG,-0.105
AAGACCAG,-0.233
CAATTACG,0.0907
TGTTCAAA,0.021
CCACTGAA,0.0148
CACGTACC,-0.0161
CACTCCAC,-0.239
ACAACAGC,0.134
AAACCCGT,0.281
CTTGCAAA,-0.0281

# Series 2
# Target: Fragile X messenger ribonucleoprotein 1, C-terminal low-complexity region (Fmr1, Mus musculus, UniProt P35922)
# Method: RNA Bind-n-Seq
# Molecule type: RNA
# Matrix: in vitro
# Concentration: 200 nM
# Setting: whole 134-nt RNA, ends assumed
# Added: 150 mM LiCl
# Relative to: input library
# Reading: higher = stronger binding
# Library: 7-deaza-guanosine replaces G
# Constant ends, left off below: GGGAGUUCUACAGUCCGACGAUC … UGGAAUUCUCGGGUGUCAAGG
Sequence,log2 enrichment
AAGUCCUGUGCUACACAUCGUAUGUACCGAAUCGGGAAAGGGAAAGGGAAAAAGGGAAAGUAUUAUGUUACGCCGUUCGGAUCUGCACUU,-0.181
CACAGACAACACGCACCCACACAGACACAGAGGGAAGGGGUUGGGAUAAAGACAGGGUGCACAGCAGGGCGGGGUAGGACCCCAGCCCCU,0.36
CUGUGCUACACAUCGUAUGUACCGAAUCAAACCCCCCCAAACCCCCCCAAAUUUUUUUAAAAAAGUAUUAUGUUACGCCGUUCGGAUCUG,1.68
UUUCUGCAGCAUUAGAGAAGGCCCAAGAAGAAGCCCGUCAGCAGCAAGAAACAUUAGCCAUUCAAGUAAGCAAUGGAUGAUGAAUUAGAG,-2.99
UCAAGUCCUGUGCUACACAUCGUAUGUACCGAAUCGGUUUUUUUGGAGGUUUGGAAAGUAUUAUGUUACGCCGUUCGGAUCUGCACUUCC,-1.29
UUUACAAAUAUGCCCAAGACUUCUUGGUGGCUAUUGCAGAGCCAGUGUGCCGACCAACCCAUGUGCAUGAGUACAAACUAACUGCCUACU,-0.0227
ACCAUGCAGGUGGGCAUCCUUGGGAAGUGGGGCAAGGGGGGGAUAGGGAGGGGGGUAACACUUUGGGAACAGGUGGUCCCAGGUCGUUUC,1.43
GCAGGAAGUAAAACCAAAUGGAAAUGCUUCGGAUAGUGGCAGGGGUGGGGGUUGCUAAGGAAAGGGUGGGAUGGGAGUGGGUAAAGAGUU,1.44
GUCCUGUGCUACACAUCGUAUGUACCGAAUCGGGUUUUUUUGGGUUUUUUUGGGAGGGAAAGUAUUAUGUUACGCCGUUCGGAUCUGCAC,0.0301
GCAGGGAGUAAAAACAAAUGGAAAUGCUUCGGAUAGUGGCAGGGGUGGGGGUUGCUAAGGAAAGGGUGGGAUGGGAGUGGGUAAAGAGUU,1.35
UGGCCCUGGUGGCAUGCGGGGAGGAAGAGGUGGCCUCAUGGAUCGUGGUGGUCCCGGUGGAAUGUUCUGAGGUGGCCGUGGUGGAGACAG,-0.344

# Series 3
# Target: TAR DNA-binding protein 43, full length, His tag (TARDBP, Homo sapiens, UniProt Q13148, residues 1-414)
# Method: RNA Bind-n-Seq
# Molecule type: RNA
# Matrix: in vitro
# Concentration: 20 nM
# Setting: 6-mer, flanks averaged, single round
# Added: 150 mM LiCl
# Relative to: input library
# Reading: higher = stronger binding
Sequence,6-mer enrichment (R)
CGCGAC,0.872
UAUCUA,0.876
UAAAGC,0.858
GUGUAG,1.35
AUCGCC,0.871
UUGACC,0.971
UAAGCU,0.851
GAAUUU,0.963
CUUGCC,0.982
GAUCUA,0.836
AAUUUA,1.04
UUUAAC,0.968
CUGUGA,0.953
AGCUUG,0.93
AGGGUU,1.02
GGUGUA,1.31
CUCCAC,0.924
GUACGA,0.936
CUUAAA,0.882
UUAUGG,1.12

# Series 4
# Target: RING finger protein unkempt homolog, zinc fingers 1-6, GST-SBP tag (UNK, Homo sapiens, UniProt Q9C0B0, residues 30-357)
# Chain of UniProt Q9C0B0 (30-357, looked up): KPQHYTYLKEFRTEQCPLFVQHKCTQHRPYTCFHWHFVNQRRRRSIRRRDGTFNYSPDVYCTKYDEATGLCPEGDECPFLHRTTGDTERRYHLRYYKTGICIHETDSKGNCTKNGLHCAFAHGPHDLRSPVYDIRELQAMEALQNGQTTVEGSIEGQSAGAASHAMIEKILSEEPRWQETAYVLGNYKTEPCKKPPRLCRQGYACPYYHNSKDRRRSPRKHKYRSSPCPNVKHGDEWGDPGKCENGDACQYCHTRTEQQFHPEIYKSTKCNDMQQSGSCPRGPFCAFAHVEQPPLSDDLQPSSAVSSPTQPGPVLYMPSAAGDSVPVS
# Method: RNA Bind-n-Seq
# Molecule type: RNA
# Matrix: in vitro
# Concentration: not given
# Setting: RNA with constant flanks, ends assumed
# Relative to: input RNA pool
# Reading: higher = stronger binding
# Constant ends, left off below: GGGAGUUCUACAGUCCGACGAUC … CAACAGAGGAUUGAGCAUCA
Sequence,bound/input enrichment [ratio]
CUGAAGUCUCUGCGGGAACUCAAUGUCCGAAGAAAUUACCUUAAGGUUUUACCACCAGAGCCCGCCGAUCUCCCCUUGGUAAAGUUUGACUUUUCCUGCAACAAGGUGCUGGUGAUCCCC,0.142
UCUGCCCCAGAACAAUUCUGCAGAGUGGUGAAGUUCACUUCCCCAACUCUUCUCCAAGUCCCGCUUUCCUUUCCUUCUGGCUCCAAGGUGCUCUGUGUCCGUCUGUGUAUGUGUGUGUCU,0.684
UCCAGGACUCUCAAGCUGGCAUCAUAUUAUUUGUUAUUUAAAAGACACAAUUAUUUCCGGCCGAUCUUUUUUUUUAAUGAGGUGGGGUAAGGCUGUGACUUUUGAUCUAAACAAAAGAUC,0.164
GAGAAGAAGCAGCAACUUCUUAGAGCGGCAACAGGAAAGGCCAUUUUAAAUGGAACCGACCGCAUUAACAAAGUGCUAGAACAUUUUCGGCGAAAAGGUAUAAACCAGCAUGUUCAAAAU,0.173
AGUAGAGAGAUAACAAAAGCUGCUCAGAGUCUCAAUGAACUUGAUUAUCUUUCUCAAGGAACCGAUCUUUCUGGAAUAGAAGUGAUAGAAAAUGAUCUACUUUUUAUUGCAAGAGCCCGA,0.139
UGCAUUCGCAAAGCAAAGAUCUCUGCUGUUGCUUUCCGGAAAGCUUUCUGCCACCACAAGUCCGUGGAACUUGAUGCCACAGGUGUGAAUGCUGAUAUCACGAUUACAGACAUUAUCAGU,0.118
AUUUUCCAGUUUUAACAAAUUUAAGAACCCCAAACUAACAGGCUUAGUGAUGUAAUUGUGUUCCGCCGAGGUACACUUGUGAAUAAGGAGGGUGGGUGGGGUAGAUGUUGCUAACUGCAA,1.11
GCAAUCAGCAGAGACAUUGAUACUGCUGCCAAAUUUAUUGGUGCAGGUGCUGCAACAGCCGGAGUGGCUGGUUCUGGUGCUGGUAUUGGAACAGUCUUUGGCAGCCUUAUCAUUGGUUAU,0.153
GUACAGACUGCCUCAAAACAGGUUGAUGGUGAUUACGUCGUGUCUGAAUGGAGUGAGAUUACCGAAUUCUGUACAGCAGAUUACUCCAAAGUUCAUCUAACACAGCUGCUGGAGAAGGCU,0.238
UUUAUGGCAUGUAAUGGUGUUUAGUAAUAUUUUAAUGUAGAUUUUGAUUUAUUUCAGCAACCGUAAUUUUAAGAUAUUCUUUGAAUGAAAGUGUCUUCGUUUCUAUGAUACAGGUCAUUU,10.8
CCCAACCCCUGAGGCCUACAUCCAUCGAGCUGGCAGGACAGCACGCGCUAACAACCCAGGCACCGUCUUAACCUUUGUGCUUCCCACGGAGCAGUUCCACUUAGGCAAGAUUGAGGAGCU,0.256

# Series 5
# Target: Interferon regulatory factor 5, full length, phosphomimetic (IRF5, Homo sapiens, UniProt Q13568-2, residues 1-514, K96S/S451D/S453D/S456D/S462D)
# Method: protein-binding microarray
# Molecule type: double-stranded DNA, one strand shown
# Matrix: in vitro
# Concentration: 250 nM
# Setting: 60-bp whole probe
# Added: salmon DNA 0.4 mg/ml
# Relative to: random background probes
# Reading: higher = stronger binding
# Constant ends, left off below: GCCTAGCAC … GTCTTGATTCGCTTGACGCTGCTG
Sequence,log fluorescence [z-score]
GACGATATCAGTTTCGGGACGTGCTAG,7.41
TCCATTTTCTAAATTCCCTAGTGCTAG,1.09
TTAGAACTGAGCCTGGATTAGTGCTAG,-0.463
TTAGCTCTCCTTATCCTTTAGTGCTAG,0.223
TTCATTATTGTTTCCTTCCTGTGCTAG,1.58
GACCGACTGCTTCTCCTGACGTGCTAG,-0.521
TCAAAAATGATTTTTTTACTGTGCTAG,0.609
GACGGTTTCCTTTCCCTGACGTGCTAG,1.47
GACGATCTCAGTATCGCGACGTGCTAG,0.169
TTAGGACGGGGGTATCGGTTAGTGCTA,4.64
AGCTATCACTATTCTAGGGAAGTGCTA,3.01
GACGATTTCAGTCTGGAGACGTGCTAG,1.08
TTTCCCTAGAAGACGAAAGAGTGCTAG,4.14
GACGTTCTCGGTATCGGGACGTGCTAG,1.51
TTAGCTATCGGGTTTCGATTAGTGCTA,7.84
GACGGTCTCCTTATCCAGACGTGCTAG,-0.0712
GAGGGGGCAGGGACTCAGGGGTGCTAG,0.36
TTAGATTTCCTTTTCCTTTAGTGCTAG,1.48
GGTTTTCTCTGGTTCTTGCTGTGCTAG,0.758
TCATATTTTTTTCTAATACTGTGCTAG,1.25
GGTGTAAGGAACTGAAGTGAGTGCTAG,-0.2
TTAGAACTGAGTCTCGATTGGTGCTAG,0.612
TCAGCTTTCTCTTTCATACTGTGCTAG,4.89
TCACAGTTGAGTTCTGTTACTGTGCTA,0.155
TCCCCGGAGCTGGACAGAAGGTGCTAG,-0.413

# For quick reference, copied from above (series 5):
Sequence,log fluorescence [z-score]
GGTTTTCTCTGGTTCTTGCTGTGCTAG,0.758
TCATATTTTTTTCTAATACTGTGCTAG,1.25
GGTGTAAGGAACTGAAGTGAGTGCTAG,-0.2
TTAGAACTGAGTCTCGATTGGTGCTAG,0.612
